Experimental data of several laboratories.
Lines come from different studies, so protocols differ. Numbers after ± are the reported error.
Cell line: A2780

| SMILES | assay | setting | scale | measurement | result |
| --- | --- | --- | --- | --- | --- |
| CC(C)=CCC1=C([O-])C(=O)c2ccccc2C1=O.O=[N+]([O-])[O-].[Cu+2].c1ccc(-c2cccc(-c3ccccn3)n2)nc1 | cell viability, MTT | 72 h | – | IC50 | 0.38 ± 0.01 µM |
| [Br-].c1ccc(-c2nn(-c3ccccn3)[n+](-c3ccccc3)n2)cc1 | labile iron pool, calcein-AM | 40 µM, 24 h | – | calcein fluorescence increase | ~37% |
| COc1ccc(CC2COC(=O)C2Cc2ccc3c(c2)OCO3)cc1OC (mixture of isomers) | annexin V/7-AAD | 8.75 µM, 72 h | baseline: untreated | apoptotic cells | increased |
| CCCC(C)NC(=O)C(Nc1ccccc1C(=O)c1ccccc1)c1cn(C)c2ccccc12 (stereo not shown) | cell growth or viability, MTT | 72 h | – | GI50 | 7 µM |
| CC12CCC3c4ccc(OCCCOc5no[n+]([O-])c5S(=O)(=O)c5ccccc5)c(Br)c4CCC3C1CCC2O (stereo not shown) | Griess | 100 µM, 150 min | – | intracellular nitrite | 57 µM |
| C#CCN(C(=O)OCc1ccc(C(=O)N(C)C)cc1)[c-]1cccc1.[Fe+2].c1cc[cH-]c1 | CM-DCFH-DA | 25 µM, 2 h | baseline: DMSO | total ROS level | 6.1 ± 0.7 fold |
| CCCCCCCCCCCCCCCCNC(=O)[O][Pt]([Cl])([Cl])[O]C(=O)CCC(=O)O.N.N | annexin V/PI flow cytometry | 0.2 µM, 72 h | – | early apoptotic cells | 55.9% |
| C#CCN(C(=O)OCc1ccc(B2OC(C)(C)C(C)(C)O2)cc1)[c-]1cccc1.[Fe+2].c1cc[cH-]c1 | acridine orange | 25 µM | – | lysosomal fluorescence | inactive |
| CC(C)=CCC1=C([O-])C(=O)c2ccccc2C1=O.CC(C)=CCC1=C([O-])C(=O)c2ccccc2C1=O.[Cu+2].c1ccc(-c2ccnc3c2ccc2c(-c4ccccc4)ccnc23)cc1 | ICP-MS | concentration not given, 24 h | baseline: untreated | intracellular copper | ~4 fold |
| Oc1ccccc1-c1nn(-c2ccccn2)[n+](-c2ccccc2)n1.[Br-] | calcein-AM, measured: labile iron pool | 40 µM | – | time to saturated calcein fluorescence | ≤ 1 h |

A few entries again:
| SMILES | assay | setting | scale | measurement | result |
| --- | --- | --- | --- | --- | --- |
| CC(C)=CCC1=C([O-])C(=O)c2ccccc2C1=O.O=[N+]([O-])[O-].[Cu+2].c1ccc(-c2cccc(-c3ccccn3)n2)nc1 | cell viability, MTT | 72 h | – | IC50 | 0.38 ± 0.01 µM |
